Results collected from several papers.
Protocols differ between the studies behind these lines.
UCHL1: Ubiquitin carboxyl-terminal hydrolase isozyme L1 (UCHL1, Homo sapiens, UniProt P09936)
UniProt P09936, sequence (whole entry, looked up): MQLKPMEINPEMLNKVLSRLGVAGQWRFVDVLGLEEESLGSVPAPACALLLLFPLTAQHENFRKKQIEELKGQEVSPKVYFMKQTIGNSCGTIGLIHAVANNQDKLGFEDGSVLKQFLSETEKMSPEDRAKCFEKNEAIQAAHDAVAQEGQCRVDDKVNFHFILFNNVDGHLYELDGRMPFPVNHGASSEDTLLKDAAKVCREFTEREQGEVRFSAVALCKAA

SMILES | tested on | test | system | conditions | how to read | endpoint | value
C=C1C(=O)O[C@H]2[C@H]1CC/C(C)=C/CC[C@@]1(C)O[C@@H]21 | Toxoplasma gondii | parasite growth, luciferase reporter | HFF, tachyzoite | 72 h | – | EC50 | 7.62 µM
OC(CCN1CCCCC1)(c1ccccc1)C1CC2C=CC1C2 (centres unmarked) | – | resting-state EEG | healthy elderly humans | oral, 4 mg, eyes open, LS mean | baseline: baseline | change, Gamma EEG power, in O2-Pz | 1.9%
CCn1cc(-c2cc(Cn3ccnc3)cc3c2CCN([C@H](c2cc(OC)ccn2)C2CC2)C3=O)c(C(F)(F)F)n1 | SNU761 | cell growth | – | 120 h | – | EC50 | 20.1 µM
N#CC(=Cc1ccc2[nH]c(=O)[nH]c2c1)C(=O)NC1CCCC1 | UCHL1 | covalent, intact protein LC-MS | – | 12.5 µM | – | labelling | 8.2%
COc1ccc(/C=C/CN2CCCC(CCC(=O)NCc3ccc(F)c(F)c3)C2)cc1 (centres unmarked) | Trypanosoma cruzi | reporter translation, Renilla luciferase mRNA translation | cell-free extract | 40 µM | baseline: DMSO | inhibition | 3.4%
CC(=O)[C@]1(O)Cc2c(O)c3c(c(O)c2[C@@H](O[C@H]2C[C@H](N)[C@H](O)[C@H](C)O2)C1)C(=O)c1ccccc1C3=O | Toxoplasma gondii | bradyzoite growth | – | glutamine-induced bradyzoites, glucose-free medium | – | EC50 | 0.82 µM
CCn1nc(C)c(CN2CCCC(C(=O)c3cccc(OC(C)C)c3)C2)c1C (centres unmarked) | Trypanosoma cruzi | reporter translation, Renilla luciferase mRNA translation | cell-free extract | 40 µM | baseline: DMSO | inhibition | -7.3%
COc1cc(C#CC(=O)c2ccc(C)cc2)ccc1O | Pseudomonas aeruginosa | static biofilm | PA14 | 10 µM, 24 h | baseline: DMSO | biofilm formation | 74%
CC(C)NCC(O)c1ccc(O)c(O)c1 (centres unmarked) | – | – | ventricular cardiomyocytes, C57BL/6 mouse | dose not given, 0.196 s | – | sarcomere length | 1.49 µm
CC[C@H]1CN2CCc3cc(OC)c(OC)cc3[C@@H]2C[C@@H]1C[C@H]1NCCc2cc(OC)c(OC)cc21 | Toxoplasma gondii | parasite growth | HFF, bradyzoite, glutamine-induced | – | – | EC90 | 3.05 µM
CCn1cc(-c2cc(Cn3ccoc3=N)cc3c2CCN([C@@H](C)c2cc(OC)ccn2)C3=O)c(C(F)(F)F)n1 | NCI-H1792 | cell growth, inhibitor | – | 120 h | – | EC50 | 0.00871 µM
O=C(c1ccc(Nc2nccc(-c3cc4ccccc4s3)n2)cc1)N1CCC(N2CCCC2)CC1 | Toxoplasma gondii | parasite growth, luciferase reporter | HFF, tachyzoite | 72 h | – | EC90 | 4.27 µM
c1coc(-c2n[nH]cc2-c2ccnc3ccccc23)c1 | BUB1 (Candida albicans) | kinase binding, MIB/MS competition | Candida albicans lysate | 1 µM | baseline: DMSO | log2 fold change | -0.22
O=C(/C=C/C=C/C=C/C1CCCCC1)NC1=C[C@@](O)(/C=C/C=C/C=C/C(=O)NC2=C(O)CCC2=O)[C@@H]2O[C@@H]2C1=O | JIMT-1 | cell growth, CellTiter-Glo | – | 78 h | – | GI50 | 14.6 µM
O=C(O)CNC(=O)Cc1ccccc1 | – | – | ventricular cardiomyocytes, C57BL/6 mouse | dose not given, 0.496 s | – | sarcomere length | 1.64 µm
Cn1cc(-c2ccc(-c3cncc(Cl)c3N3CCC4(CCNC4=O)CC3)cc2)cn1 | COLO 205 | gene expression, microarray, measured: EMID1 mRNA | – | concentration not given, 6 h | baseline: untreated cells | log2 fold change | -3.47
C[C@H]1C[C@H]2CSC(N)=N[C@@]2(c2nc(NC(=O)c3ccc(OC(F)F)cn3)cs2)CO1 | – | measured: Aβ1-40 | healthy adults, plasma | 12 mg single dose, 8 h post-dose | baseline: placebo | percent change from baseline | -67%
N#CC(=Cc1cccc(Cl)c1Cl)C(=O)NCc1ccco1 | UCHL1 | covalent, intact protein LC-MS | – | 12.5 µM | – | labelling | 37.9%
Oc1ccccc1-c1n[nH]cc1-c1ccnc2ccccc12 | MKK2 (Candida albicans) | kinase binding, MIB/MS competition | Candida albicans lysate | 1 µM | baseline: DMSO | log2 fold change | 0.02
C[n+]1cc2c3c(ccc2c2ccc4cc5c(cc4c21)OCO5)OCO3 | Toxoplasma gondii | parasite growth | HFF, bradyzoite, glutamine-induced | – | – | EC90 | 1.08 µM

Some of these lines once more:
SMILES | tested on | test | system | conditions | how to read | endpoint | value
N#CC(=Cc1cccc(Cl)c1Cl)C(=O)NCc1ccco1 | UCHL1 | covalent, intact protein LC-MS | – | 12.5 µM | – | labelling | 37.9%
